Experimental data pooled from the literature.
Numbered parts are unrelated; each lists some results of a single study. ± marks the error that the study gave.

Series 1
Species: Kunming mice both sexes
Route: intraperitoneal
Time: 7 days
SMILES | LD50
CCC1=NC2CC3(C(=O)N(OC)c4cc(OC)ccc43)C3CC1C2CO3 (centres unmarked) | 0.56 mg/kg
CON1C(=O)C2(CC3N=C(C(C)=O)C4CC2OCC34)c2ccccc21 (centres unmarked) | > 30 mg/kg
CON1C(=O)C2(CC3N=C(C(C)=O)C4C(O)C2OCC34)c2ccccc21 (centres unmarked) | > 30 mg/kg

Further values, each from its own experiment
HLA class I histocompatibility antigen, A alpha chain allele A*02:01: HLA class I histocompatibility antigen, A alpha chain, allele A*02:01 (Homo sapiens, UniProt P04439)
Compound | tested on | test | system | conditions | measurement | value
CSCC[C@H](NC(=O)[C@@H](N)[C@@H](C)O)C(=O)N[C@@H](Cc1ccc(O)cc1)C(=O)N[C@@H](Cc1ccc(O)cc1)C(=O)N[C@@H](CCCCN)C(=O)N[C@@H](CC(=O)O)C(=O)N[C@H](C(=O)N[C@H](C(=O)N[C@H](C(=O)O)C(C)C)[C@@H](C)O)C(C)C | HLA class I histocompatibility antigen, A alpha chain allele A*02:01 | binding, competitive radioligand binding |  | 2 d, with: radiolabelled reference peptide | Kd | < 25 nM
CC[C@H](C)[C@@H]1NC(=O)[C@H](CCCNC(=N)N)NC(=O)[C@H](CO)NC(=O)[C@H](CCC(=O)O)NC(=O)[C@H](CC(=O)O)NC(=O)CNC(=O)CNC(=O)[C@H]([C@@H](C)O)NC(=O)[C@H](Cc2ccccc2)NC(=O)[C@H](CO)NC(=O)[C@H]([C@@H](C)O)NC(=O)[C@H](C)NC(=O)[C@@H]2CSSC[C@@H](C(=O)N[C@@H](Cc3ccc(O)cc3)C(=O)N[C@@H](Cc3ccccc3)C(=O)N[C@H](C(=O)N[C@H](C(=O)NCC(=O)O)[C@@H](C)O)[C@@H](C)O)NC(=O)[C@H]([C@@H](C)O)NC(=O)[C@H](CSSC[C@H](NC(=O)[C@H](CCC(=O)O)NC(=O)[C@H](CO)NC(=O)[C@H](CCCCN)NC(=O)[C@H](Cc3ccc(O)cc3)NC(=O)[C@@H]3CCCN3C(=O)[C@H](Cc3ccccc3)NC(=O)[C@H](CCCCN)NC(=O)[C@H](CCCNC(=N)N)NC(=O)[C@H](CCCCN)NC(=O)[C@H](CCCCN)NC(=O)[C@H](Cc3ccc(O)cc3)NC(=O)[C@@H]3CCCN3C(=O)[C@@H](NC(=O)[C@H](CC(=O)O)NC(=O)[C@H](CCCCN)NC(=O)[C@H](CCCCN)NC(=O)[C@@H](NC(=O)[C@@H](NC(=O)[C@@H](N)CCC(=O)O)C(C)C)[C@@H](C)CC)[C@@H](C)O)C(=O)N[C@@H](CC(C)C)C(=O)N[C@@H](CCCCN)C(=O)N[C@@H](C)C(=O)N2)NC(=O)[C@H](CCCCN)NC(=O)[C@H](Cc2ccccc2)NC(=O)[C@H](Cc2ccccc2)NC(=O)CNC(=O)[C@@H]2CCCN2C(=O)[C@H](CCCCN)NC(=O)CNC(=O)[C@H](CCC(=O)O)NC(=O)[C@H](CCC(N)=O)NC1=O | KCNQ1 (Homo sapiens, UniProt P51787) | ion current, patch clamp |  |  | Hill slope | 1.74 ± 0.04
CC(C)C[C@@H]1NC(=O)[C@H](CCCNC(=N)N)NC(=O)[C@@H]2CCCN2C(=O)[C@@H]2CSSC[C@H](NC(=O)CNC(=O)[C@@H]3CCCN3C(=O)[C@H](CCCCN)NC(=O)[C@H](CC(=O)O)NC(=O)[C@@H](NC(=O)CN)C(C)C)C(=O)N[C@@H](CCCNC(=N)N)C(=O)N[C@@H](Cc3ccc(O)cc3)C(=O)N[C@@H](CC(C)C)C(=O)N[C@@H](Cc3ccccc3)C(=O)NCC(=O)NCC(=O)N[C@H]3CSSC[C@H](NC(=O)CNC1=O)C(=O)N[C@@H](CCCCN)C(=O)NCC(=O)N[C@@H](CCCCN)C(=O)NCC(=O)N[C@@H](Cc1c[nH]cn1)C(=O)N[C@@H](CC(=O)O)C(=O)N[C@@H](Cc1ccc(O)cc1)C(=O)N[C@H](C(=O)N[C@@H](C)C(=O)N[C@@H](Cc1c[nH]c4ccccc14)C(=O)N[C@@H](CC(=O)O)C(=O)NCC(=O)N[C@H](C(=O)N[C@@H](Cc1ccccc1)C(=O)N[C@@H](CO)C(=O)N[C@@H](CC(=O)O)C(=O)O)[C@@H](C)O)CSSC[C@H](NC(=O)[C@H](CC(=O)O)NC(=O)[C@H](CC(=O)O)NC(=O)[C@H](CC(=O)O)NC(=O)[C@H](CO)NC(=O)[C@H](CCCCN)NC3=O)C(=O)N2 |  |  | adult mice | intraplantar, dose not given | nocifensive behaviour duration | ~15 min
CC[C@H](C)[C@H](NC(=O)[C@H](C)NC(=O)[C@H](CCC(N)=O)NC(=O)[C@@H](NC(=O)[C@@H](NC(=O)[C@@H]1CCCN1C(=O)[C@@H]1CCCN1C(=O)[C@@H](NC(=O)[C@H](CCSC)NC(=O)[C@H](CC(C)C)NC(=O)[C@H](CC(C)C)NC(=O)[C@H](CO)NC(=O)CNC(=O)[C@H](CC(C)C)NC(=O)[C@@H](NC(=O)[C@H](CC(C)C)NC(=O)[C@H](CC(C)C)NC(=O)[C@@H]1CCCN1C(=O)[C@H](CC(C)C)NC(=O)[C@@H](N)Cc1ccccc1)[C@@H](C)CC)[C@@H](C)O)C(C)C)[C@@H](C)CC)C(=O)N[C@@H](Cc1c[nH]cn1)C(=O)N[C@@H](CC(=O)O)C(=O)N[C@@H](C)C(=O)N[C@@H](CCC(N)=O)C(=O)N[C@@H](CCCNC(=N)N)C(N)=O | SCN3A (Homo sapiens, UniProt Q9NY46) | sodium current, agonist, whole-cell patch clamp | HEK293 stably expressing NaV1.3 | 0.1% DMSO, hold -100 mV | EC50 | 1040 ± 15 nM
CC[C@H](C)[C@H](NC(=O)CN)C(=O)N[C@@H](Cc1ccccc1)C(=O)N[C@@H](CCC(=O)O)C(=O)N[C@@H](CC(=O)O)C(=O)N[C@@H](CCCNC(=N)N)C(=O)N[C@@H](C)C(=O)N1CCC[C@H]1C(=O)N[C@H](C(=O)O)C(C)C | HLA class I histocompatibility antigen, A alpha chain allele A*02:01 | binding, competitive radioligand binding |  | 2 d, with: radiolabelled reference peptide | Kd | > 500 nM

A few entries again (series 1):
SMILES | LD50
CON1C(=O)C2(CC3N=C(C(C)=O)C4CC2OCC34)c2ccccc21 (centres unmarked) | > 30 mg/kg
